Experimental data collected from several papers.
Each line is one published result; not all experiments were run side by side.
Target: Cytoplasmic tyrosine-protein kinase BMX (BMX, Homo sapiens, UniProt P51813)
One construct used (P51813 1-675): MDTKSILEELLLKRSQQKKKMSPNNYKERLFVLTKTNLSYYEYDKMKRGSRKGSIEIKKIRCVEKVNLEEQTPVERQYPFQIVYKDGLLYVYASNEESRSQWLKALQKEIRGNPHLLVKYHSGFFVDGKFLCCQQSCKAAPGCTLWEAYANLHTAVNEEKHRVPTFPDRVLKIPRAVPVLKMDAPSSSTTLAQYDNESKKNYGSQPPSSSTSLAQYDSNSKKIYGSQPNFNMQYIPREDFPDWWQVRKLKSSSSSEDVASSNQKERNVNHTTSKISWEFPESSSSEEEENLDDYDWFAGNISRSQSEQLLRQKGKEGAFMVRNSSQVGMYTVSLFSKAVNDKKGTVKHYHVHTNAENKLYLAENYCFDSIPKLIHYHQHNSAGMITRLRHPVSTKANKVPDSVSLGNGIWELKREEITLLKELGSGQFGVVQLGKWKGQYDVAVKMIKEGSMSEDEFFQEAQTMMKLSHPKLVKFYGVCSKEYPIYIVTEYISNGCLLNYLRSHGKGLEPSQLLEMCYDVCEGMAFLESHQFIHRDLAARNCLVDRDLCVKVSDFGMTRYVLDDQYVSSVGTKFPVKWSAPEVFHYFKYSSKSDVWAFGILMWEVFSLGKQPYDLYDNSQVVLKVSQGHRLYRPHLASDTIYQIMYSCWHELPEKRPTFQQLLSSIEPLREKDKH

Structure (SMILES) | assay | conditions | how to read | quantity | value
CNC(=O)C[C@H](Cc1ccc(C#N)cc1)NC(=O)c1cc(-c2ccc(CN[C@H](C)c3ccc(C)cc3)o2)ccc1Cl | enzyme activity, inhibitor | 1 µM | – | activity vs control | 92%
COc1ccc(NC(=O)Nc2ccc3c(c2)C(=O)N(C(C)CO)CC(C)C(CN(C)Cc2ccc4c(c2)OCO4)O3)cc1 (stereo not drawn) | kinase activity | 0.03 µM | reference: control | remaining activity | 95%
CCN1CCN(Cc2ccc(C(=O)Nc3ccc(C)c(NCc4cnc5[nH]ccc5c4OC)c3)cc2C(F)(F)F)CC1 | binding, competition with immobilised ligand | 1 µM | – | remaining binding | 5%
CC(C)=CC1OC(C)(C)C2C=C3C(=O)C(Cl)=CC(O)C3C3C(O)C4OC4C(=O)C132 (stereo not drawn) | cell-free assay, competition with immobilised ligand | 10 µM | – | remaining binding | 85%
C=CC(=O)Nc1cccc(-c2cnc3[nH]cc(C(=O)NC(C)(C)C)c3n2)c1 | enzyme activity, inhibitor | 0.1 µM | – | inhibition | 68%
Cc1ccc(-c2c(/C=C(\C#N)C(=O)NC(C)C)n(CCCO)c3ncnc(N)c23)cc1 | cell-free assay, competition with immobilised ligand | 1 µM | – | remaining binding | 100%
CN1CCN(Cc2ccc(-c3ccc(CO[C@H]4CCC[C@@H]4NC(=O)c4cc(-c5cnn(C)c5)cnc4N)cc3)cc2)CC1 | enzyme activity, inhibitor | 0.1 µM | – | inhibition | 4%
Cc1cccc(O[C@H]2CCC[C@@H](C(C)CNCc3ccncc3)C2)c1 (relative stereo) | enzyme activity, inhibitor | 1 µM | – | inhibition | 2%
Cc1cnc2nc1Nc1cccc(c1)COC/C=C/COCc1cc(ccc1OCCN1CCOCC1)N2 | binding | 0.1 µM | – | remaining binding | 70%
O=c1c(-c2ccc(Cl)c(CN3CCOCC3)c2)coc2cc(O)ccc12 | enzyme activity, inhibitor | 1 µM | – | remaining activity | 91%
O=C=[N][Ru-4]123([n]4c5ccc(O)cc5c5c6c(c7cc(F)c[n+]1c7c54)C(=O)NC6=O)[S+]1CC[S+]2CC[S+]3CC1 (stereo not drawn) | enzyme activity | 100 nM, human enzyme, together with: 10 µM ATP | reference: untreated | remaining activity | 124%
COc1ccc(O)cc1-c1c[nH]c2ncc(-c3cncc(C(=O)N(C)C)c3)cc12 | binding, competition with immobilised ligand | 0.2 µM | – | inhibition | -2.41%
COc1cc(Nc2nc(C)cc(-c3cnn4nc(OC)ccc34)n2)cc(C(F)(F)F)c1 | inhibitor | 1 µM | reference: control | remaining activity | 87%
NC(=O)[C@@H](O)C[C@H]1CCc2sc3ncnc(O[C@H]4CC[C@H](N5CCOCC5)CC4)c3c21 | enzyme activity, inhibitor | 10 µM | – | inhibition | 21%
COc1c(OCCCN2CCOCC2)ccc2c1N=C(NC(=O)c1cnc(N)nc1)N1CCN=C21 | kinase activity, inhibitor | 1 µM | reference: untreated control | remaining activity | 85%

Repeated from above:
Structure (SMILES) | assay | conditions | how to read | quantity | value
COc1cc(Nc2nc(C)cc(-c3cnn4nc(OC)ccc34)n2)cc(C(F)(F)F)c1 | inhibitor | 1 µM | reference: control | remaining activity | 87%
NC(=O)[C@@H](O)C[C@H]1CCc2sc3ncnc(O[C@H]4CC[C@H](N5CCOCC5)CC4)c3c21 | enzyme activity, inhibitor | 10 µM | – | inhibition | 21%
